Measurements gathered from unrelated publications.
Lines come from different studies, so protocols differ. Several values in a cell are separate wells, animals, samples, runs or records. ± marks the error that the study gave.
Tumor necrosis factor receptor superfamily member 1A extracellular domain: Tumor necrosis factor receptor superfamily member 1A, extracellular domain (Homo sapiens, UniProt P19438)
UniProt P19438, sequence (whole entry, looked up): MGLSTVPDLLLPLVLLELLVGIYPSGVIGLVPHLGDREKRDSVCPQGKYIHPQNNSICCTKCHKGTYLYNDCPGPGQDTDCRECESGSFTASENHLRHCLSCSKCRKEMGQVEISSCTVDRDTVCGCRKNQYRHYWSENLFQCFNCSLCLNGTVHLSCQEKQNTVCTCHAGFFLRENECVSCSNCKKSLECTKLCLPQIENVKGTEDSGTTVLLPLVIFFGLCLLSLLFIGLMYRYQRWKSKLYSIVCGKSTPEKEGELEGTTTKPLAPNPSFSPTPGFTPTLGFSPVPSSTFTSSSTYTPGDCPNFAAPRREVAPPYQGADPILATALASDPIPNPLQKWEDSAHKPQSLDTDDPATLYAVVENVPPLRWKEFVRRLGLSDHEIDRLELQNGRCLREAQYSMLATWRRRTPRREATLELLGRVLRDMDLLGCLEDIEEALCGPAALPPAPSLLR
USP5 ZnF-UBD domain: Ubiquitin carboxyl-terminal hydrolase 5, ZnF-UBD domain (USP5, Homo sapiens, UniProt P45974)
UniProt P45974, sequence (whole entry, looked up): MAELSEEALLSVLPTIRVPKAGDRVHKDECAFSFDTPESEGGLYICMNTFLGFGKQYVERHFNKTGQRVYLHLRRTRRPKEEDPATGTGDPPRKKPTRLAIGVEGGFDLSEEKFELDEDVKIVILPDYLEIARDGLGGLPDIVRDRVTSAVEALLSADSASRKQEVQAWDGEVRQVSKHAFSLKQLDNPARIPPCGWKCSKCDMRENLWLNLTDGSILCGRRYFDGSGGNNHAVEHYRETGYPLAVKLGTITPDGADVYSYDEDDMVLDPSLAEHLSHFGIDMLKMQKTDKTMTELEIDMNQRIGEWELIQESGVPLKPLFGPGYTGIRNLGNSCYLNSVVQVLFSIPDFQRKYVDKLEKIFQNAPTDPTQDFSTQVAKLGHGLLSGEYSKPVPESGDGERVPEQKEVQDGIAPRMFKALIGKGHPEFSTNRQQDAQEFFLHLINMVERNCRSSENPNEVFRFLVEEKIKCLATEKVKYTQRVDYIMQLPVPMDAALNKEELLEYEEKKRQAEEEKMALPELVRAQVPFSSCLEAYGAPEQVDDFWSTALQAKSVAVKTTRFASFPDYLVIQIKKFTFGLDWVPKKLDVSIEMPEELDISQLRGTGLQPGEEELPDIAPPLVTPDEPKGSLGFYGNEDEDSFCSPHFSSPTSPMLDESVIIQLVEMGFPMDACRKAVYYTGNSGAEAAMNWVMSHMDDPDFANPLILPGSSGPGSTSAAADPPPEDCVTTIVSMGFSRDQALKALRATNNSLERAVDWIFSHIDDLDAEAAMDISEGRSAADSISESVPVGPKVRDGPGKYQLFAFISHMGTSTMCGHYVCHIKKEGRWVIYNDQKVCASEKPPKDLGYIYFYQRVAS
HDAC5: Histone deacetylase 5 (HDAC5, Homo sapiens, UniProt Q9UQL6)
UniProt Q9UQL6, sequence (whole entry, looked up): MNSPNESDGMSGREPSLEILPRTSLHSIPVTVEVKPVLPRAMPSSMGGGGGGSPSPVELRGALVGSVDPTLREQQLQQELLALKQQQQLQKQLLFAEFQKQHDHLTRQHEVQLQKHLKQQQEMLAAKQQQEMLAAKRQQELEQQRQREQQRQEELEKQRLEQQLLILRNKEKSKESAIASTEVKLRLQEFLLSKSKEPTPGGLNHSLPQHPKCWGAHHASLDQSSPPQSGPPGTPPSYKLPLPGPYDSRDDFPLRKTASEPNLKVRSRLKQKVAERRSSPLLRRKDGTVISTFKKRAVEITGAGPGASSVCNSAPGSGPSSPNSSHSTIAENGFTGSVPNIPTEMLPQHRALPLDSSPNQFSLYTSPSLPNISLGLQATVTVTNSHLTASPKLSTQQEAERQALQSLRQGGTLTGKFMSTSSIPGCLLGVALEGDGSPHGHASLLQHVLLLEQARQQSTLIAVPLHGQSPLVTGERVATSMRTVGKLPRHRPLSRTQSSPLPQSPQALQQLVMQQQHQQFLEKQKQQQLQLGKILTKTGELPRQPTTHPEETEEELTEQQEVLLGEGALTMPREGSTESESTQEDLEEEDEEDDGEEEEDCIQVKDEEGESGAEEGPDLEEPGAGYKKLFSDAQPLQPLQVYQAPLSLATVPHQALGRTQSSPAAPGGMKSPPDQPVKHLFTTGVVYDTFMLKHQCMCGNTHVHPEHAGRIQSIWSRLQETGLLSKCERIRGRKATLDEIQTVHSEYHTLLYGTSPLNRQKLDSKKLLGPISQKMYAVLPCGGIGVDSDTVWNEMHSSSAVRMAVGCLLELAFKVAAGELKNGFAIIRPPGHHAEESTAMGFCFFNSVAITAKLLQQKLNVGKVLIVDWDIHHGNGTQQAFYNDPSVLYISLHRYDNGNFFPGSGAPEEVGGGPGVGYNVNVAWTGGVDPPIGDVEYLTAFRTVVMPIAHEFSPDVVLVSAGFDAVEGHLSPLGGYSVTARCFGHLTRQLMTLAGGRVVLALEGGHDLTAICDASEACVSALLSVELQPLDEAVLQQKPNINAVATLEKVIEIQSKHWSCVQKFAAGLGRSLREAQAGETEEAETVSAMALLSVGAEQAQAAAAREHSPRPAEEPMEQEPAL
GATD3: Glutamine amidotransferase-like class 1 domain-containing protein 3, mitochondrial (GATD3, Homo sapiens, UniProt P0DPI2)
UniProt P0DPI2, sequence (whole entry, looked up): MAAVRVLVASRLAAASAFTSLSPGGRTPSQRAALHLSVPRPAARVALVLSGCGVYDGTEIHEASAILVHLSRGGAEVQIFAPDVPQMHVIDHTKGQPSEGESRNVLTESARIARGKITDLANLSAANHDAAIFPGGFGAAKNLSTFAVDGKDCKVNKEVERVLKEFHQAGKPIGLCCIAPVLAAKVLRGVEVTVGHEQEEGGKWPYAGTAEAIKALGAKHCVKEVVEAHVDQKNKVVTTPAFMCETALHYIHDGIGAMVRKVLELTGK
mtrB: Transcription attenuation protein MtrB (mtrB, Halalkalibacterium halodurans, UniProt Q9KCC6)
UniProt P45983, sequence (whole entry, looked up): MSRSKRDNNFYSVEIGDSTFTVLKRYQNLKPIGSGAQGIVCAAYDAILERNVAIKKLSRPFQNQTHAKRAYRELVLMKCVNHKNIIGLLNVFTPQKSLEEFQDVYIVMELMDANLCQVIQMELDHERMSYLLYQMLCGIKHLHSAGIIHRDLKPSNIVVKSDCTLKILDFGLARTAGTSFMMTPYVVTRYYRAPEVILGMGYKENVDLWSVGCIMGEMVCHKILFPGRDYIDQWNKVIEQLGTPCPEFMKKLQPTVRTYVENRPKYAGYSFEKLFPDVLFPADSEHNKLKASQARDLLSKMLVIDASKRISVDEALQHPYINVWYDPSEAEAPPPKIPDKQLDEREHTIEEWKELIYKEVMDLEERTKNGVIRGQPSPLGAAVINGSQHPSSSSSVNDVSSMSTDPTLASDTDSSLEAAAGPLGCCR
UniProt P53779, sequence (whole entry, looked up): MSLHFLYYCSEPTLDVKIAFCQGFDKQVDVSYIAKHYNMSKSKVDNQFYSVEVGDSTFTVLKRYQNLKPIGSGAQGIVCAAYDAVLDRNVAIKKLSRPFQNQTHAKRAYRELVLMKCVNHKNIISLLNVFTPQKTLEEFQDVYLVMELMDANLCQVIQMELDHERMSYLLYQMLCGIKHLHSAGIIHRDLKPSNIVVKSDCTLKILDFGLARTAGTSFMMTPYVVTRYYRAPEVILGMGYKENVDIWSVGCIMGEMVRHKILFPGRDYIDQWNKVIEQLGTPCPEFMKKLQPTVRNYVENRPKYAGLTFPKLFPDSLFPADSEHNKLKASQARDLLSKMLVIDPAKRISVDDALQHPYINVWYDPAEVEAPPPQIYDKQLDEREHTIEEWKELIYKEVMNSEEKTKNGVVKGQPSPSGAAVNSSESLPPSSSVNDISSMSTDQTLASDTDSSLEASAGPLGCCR
UniProt Q9KCC6, sequence (whole entry, looked up): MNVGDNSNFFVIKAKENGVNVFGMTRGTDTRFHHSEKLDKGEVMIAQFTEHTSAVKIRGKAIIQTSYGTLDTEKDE
UniProt P18357, sequence (whole entry, looked up): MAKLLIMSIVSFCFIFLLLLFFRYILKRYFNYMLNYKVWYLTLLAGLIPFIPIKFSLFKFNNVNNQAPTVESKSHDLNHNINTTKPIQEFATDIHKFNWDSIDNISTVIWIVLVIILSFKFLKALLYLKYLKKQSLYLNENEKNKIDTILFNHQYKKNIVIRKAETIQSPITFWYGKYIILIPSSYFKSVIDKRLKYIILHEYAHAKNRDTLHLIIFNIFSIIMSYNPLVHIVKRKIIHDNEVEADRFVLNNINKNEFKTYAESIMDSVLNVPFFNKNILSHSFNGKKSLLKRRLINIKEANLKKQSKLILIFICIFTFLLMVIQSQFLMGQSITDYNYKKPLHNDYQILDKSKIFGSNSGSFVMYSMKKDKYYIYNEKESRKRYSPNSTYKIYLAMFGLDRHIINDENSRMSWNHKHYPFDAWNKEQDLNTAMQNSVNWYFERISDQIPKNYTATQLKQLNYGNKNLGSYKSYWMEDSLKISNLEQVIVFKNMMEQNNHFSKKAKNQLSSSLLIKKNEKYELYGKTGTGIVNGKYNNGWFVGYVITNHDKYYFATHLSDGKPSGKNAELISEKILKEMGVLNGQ
UniProt P02749, sequence (whole entry, unmodified, looked up): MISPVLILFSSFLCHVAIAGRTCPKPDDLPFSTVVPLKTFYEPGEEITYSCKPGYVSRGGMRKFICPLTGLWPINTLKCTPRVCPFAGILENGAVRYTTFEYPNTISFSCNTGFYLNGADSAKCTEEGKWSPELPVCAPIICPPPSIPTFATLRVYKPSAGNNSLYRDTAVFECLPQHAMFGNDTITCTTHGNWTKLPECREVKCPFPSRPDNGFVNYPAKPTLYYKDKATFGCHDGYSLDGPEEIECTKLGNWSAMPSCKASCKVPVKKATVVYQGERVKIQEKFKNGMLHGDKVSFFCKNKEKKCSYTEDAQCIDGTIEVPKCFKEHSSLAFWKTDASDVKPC
UniProt Q16774, sequence (whole entry, unmodified, looked up): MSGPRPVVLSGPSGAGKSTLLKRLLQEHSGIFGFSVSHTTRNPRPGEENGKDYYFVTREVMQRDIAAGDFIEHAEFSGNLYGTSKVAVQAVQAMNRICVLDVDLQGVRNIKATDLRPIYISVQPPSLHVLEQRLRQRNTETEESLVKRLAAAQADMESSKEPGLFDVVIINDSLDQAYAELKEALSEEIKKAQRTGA

O=C(O)c1cc(-c2ccc(CO)cc2F)ccn1
Kd (Tumor necrosis factor receptor superfamily member 1A extracellular domain; SPR OneStep; immobilized target): 1310 ± 40 µM

CSc1nc(C)c(CCC(=O)O)c(=O)[nH]1
Kd (USP5 ZnF-UBD domain): > 1000 µM

O=C(NO)c1cnc(NC2(c3ccccc3)CC2)nc1
Kd (HDAC5; inhibitor, competition pulldown; SW620 and MV4-11 lysate; 1 h): > 30.2 µM

O=C(O)c1cc(-c2ccc3[nH]ccc3c2)ccn1
Kd (Tumor necrosis factor receptor superfamily member 1A extracellular domain; binding, SPR OneStep): 576 ± 11 µM

NC(=O)C[C@H](N)C(=O)O
Kd (Methyl-accepting chemotaxis protein, ligand-binding domain (Pectobacterium atrosepticum, UniProt Q6D6I9); isothermal titration calorimetry; pH 6.0, 25 °C, ligand-binding domain): 65 ± 5 µM

C#Cc1cccc(Nc2ncnc3cc(OC)c(OCCCCCCC(=O)NO)cc23)c1
Kd (GATD3; inhibitor, competition pulldown; SW620 and MV4-11 lysate; 1 h): > 30.2 µM

O=C(O)CN1Cc2ccccc2C1=O
Kd (USP5 ZnF-UBD domain): > 1000 µM

O=C(CCCCCCC(=O)Nc1ccccc1)NO
Kd (GATD3; inhibitor, competition pulldown; SW620 and MV4-11 lysate; 1 h): 1.53 µM

NCCc1c[nH]c2ccc(O)cc12
Kd (5-hydroxytryptamine receptor 1E (5HT1E, Cavia porcellus, UniProt Q6VB83); binding, radioligand, saturation binding; AV12 cell membranes; pH 7.4, 37 °C): 0.00646 ± 0.0006 µM

O=C(O)c1cc(-c2ccc(F)cc2)cc(CO)n1
Kd (Tumor necrosis factor receptor superfamily member 1A extracellular domain; SPR OneStep; immobilized target): 1080 ± 130 µM

N[C@@H](Cc1c[nH]c2ccccc12)C(=O)O
Kd (mtrB; binding, ITC): 6.5 ± 1 µM

OC[C@H]1O[C@@](CO)(O[C@H]2O[C@H](CO)[C@@H](O)[C@H](O)[C@H]2O)[C@@H](O)[C@@H]1O
Kd (uncharacterized protein (Streptococcus pneumoniae, UniProt A0A0H2ZPW1); binder, isothermal titration calorimetry; 25 °C, wild type): > 300 µM

O=C(O)CCn1ccccc1=O
Kd (USP5 ZnF-UBD domain): > 1000 µM

O=C(O)c1cncc(-c2ccc3[nH]ccc3c2)c1
Kd (Tumor necrosis factor receptor superfamily member 1A extracellular domain; binding, SPR OneStep): 112 µM

Nc1nc2c(ncn2[C@@H]2O[C@H](COP(=O)(O)O)[C@@H](O)[C@H]2O)c(=O)[nH]1
Kd (GUK1 (Homo sapiens, UniProt Q16774, R44A); binding, ITC; 25 °C, together with: GMP): 270 ± 30 µM

Nc1nc(-c2ccc(Cl)c(S(N)(=O)=O)c2)cs1
Kd (CA9 (Homo sapiens, UniProt Q16790); binding; pH 7): 0.13 µM

Nc1ccccc1NC(=O)c1ccc(CNC(=O)OCc2cccnc2)cc1
Kd (GATD3; inhibitor, competition pulldown; SW620 and MV4-11 lysate; 1 h): > 30.2 µM

Nc1nnc(-c2ccncc2)s1
Kd (MAPK8 (Homo sapiens, UniProt P45983)): 142 µM and 182 µM

Nc1cc(F)ccc1NC(=O)c1ccc(CNC(=O)/C=C/c2cccnc2)cc1
Kd (GATD3; inhibitor, competition pulldown; SW620 and MV4-11 lysate; 1 h): > 30.2 µM

Cn1ccc2cc(-c3ccnc(C(=O)O)c3)ccc21
Kd (Tumor necrosis factor receptor superfamily member 1A extracellular domain; SPR OneStep; immobilized target): 597 ± 152 µM

OB(O)CSc1nc2ccccc2n1Cc1ccc(C(F)(F)F)cc1C(F)(F)F
Kd (Regulatory protein BlaR1, sensor domain (blaR1, Staphylococcus aureus, UniProt P18357); binding, SPR two-state model): 3.8 ± 0.3 µM

O=C(O)CCc1cnn(-c2ccccc2)c1
Kd (USP5 ZnF-UBD domain): > 1000 µM

CO[C@H]1O[C@H](COS(=O)(=O)O)[C@@H](O[C@@H]2O[C@@H](C(=O)O)[C@@H](O[C@H]3O[C@H](COS(=O)(=O)O)[C@@H](O[C@@H]4O[C@H](C(=O)O)[C@@H](O[C@H]5O[C@H](COS(=O)(=O)O)[C@@H](O)[C@H](O)[C@H]5NS(=O)(=O)O)[C@H](O)[C@H]4O)[C@H](OS(=O)(=O)O)[C@H]3NS(=O)(=O)O)[C@H](O)[C@H]2OS(=O)(=O)O)[C@H](O)[C@H]1NS(=O)(=O)O
Kd (Beta-2-glycoprotein 1, domain V (APOH, Homo sapiens, UniProt P02749, V266L); tryptophan fluorescence titration; pH 7.0, 100 mM NaCl): 2 µM

CC(=O)N[C@H](C(=O)N[C@@H](CC(N)=O)C(=O)N[C@@H](CO)C(=O)N[C@H]1CSSC[C@@H](C(=O)NCC(=O)N[C@@H](CC(=O)O)C(=O)N[C@@H](CC(=O)O)C(=O)N[C@@H](CCCCNC(=O)CCCC(=O)NCCOCCOCCOCC(=O)NCCCC[C@H](NC(=O)COCCOCCOCCNC(=O)CCCC(=O)NCCCC[C@H](NC(=O)[C@H](CC(=O)O)NC(=O)[C@H](CC(=O)O)NC(=O)CNC(=O)[C@@H]2CSSC[C@H](NC(=O)[C@H](CO)NC(=O)[C@H](CC(N)=O)NC(=O)[C@@H](NC(C)=O)C(C)C)C(=O)N[C@@H](CC(C)C)C(=O)N[C@@H](CC(C)C)C(=O)N[C@@H](CC(C)C)C(=O)N3CCC[C@H]3C(=O)N[C@@H](CC(N)=O)C(=O)N[C@@H](CC(C)C)C(=O)N[C@@H](CC(C)C)C(=O)NCC(=O)N2)C(=O)N[C@@H](CCCCNC(=O)CCCC[C@@H]2SC[C@@H]3NC(=O)N[C@@H]32)C(N)=O)C(=O)NCc2cn(-c3cc(C(=O)NCCCCCC(=O)NCCCCCC(=O)NCCCCCC(=O)NCCCCCC(=O)NCCCCCC(=O)NCCCCCC(=O)NCc4cn(CCCC[C@H](NC(=O)N[C@@H](CCC(=O)O)C(=O)O)C(=O)O)nn4)cc(C(=O)NCCCCCC(=O)NCCCCCC(=O)NCCCCCC(=O)NCCCCCC(=O)NCCCCCC(=O)NCCCCCC(=O)NCc4cn(CCCC[C@H](NC(=O)N[C@@H](CCC(=O)O)C(=O)O)C(=O)O)nn4)c3)nn2)C(=O)N[C@@H](CCCCNC(=O)CCCC[C@@H]2SC[C@@H]3NC(=O)N[C@@H]32)C(N)=O)NC(=O)CNC(=O)[C@H](CC(C)C)NC(=O)[C@H](CC(C)C)NC(=O)[C@H](CC(N)=O)NC(=O)[C@@H]2CCCN2C(=O)[C@H](CC(C)C)NC(=O)[C@H](CC(C)C)NC(=O)[C@H](CC(C)C)NC1=O)C(C)C
Kd (human FcγRI; bead phagocytosis, ternary complex model fit; together with: PSMA 80 pM, FcγRI 800 pM): 0.01 µM

Cc1[nH]c2ccccc2c1CCNCc1ccc(/C=C/C(=O)NO)cc1
Kd (GATD3; inhibitor, competition pulldown; SW620 and MV4-11 lysate; 1 h): > 30.2 µM

C=CC(=O)N1CCN(c2nc(OC[C@@H]3CCCN3C)nc3c(F)c(-c4nc(N)cc(C)c4C(F)(F)F)c(Cl)cc23)[C@@H](C)C1
Kd (GTPase KRas, GDP-bound (KRAS, Homo sapiens, UniProt P01116, Q61R); SPR): 0.469 ± 0.014 µM

O=C(O)c1cc(-c2ccc3c(c2)OCO3)ccn1
Kd (Tumor necrosis factor receptor superfamily member 1A extracellular domain; SPR OneStep; immobilized target): 1360 ± 10 µM

O=C(O)Cc1nc2ccccc2[nH]1
Kd (USP5 ZnF-UBD domain): > 1000 µM

N[C@@H](Cc1c[nH]c2ccccc12)C(=O)O
Kd (mtrB; binding, circular dichroism; Bacillus halodurans; pH 8): 14.6 ± 1.8 µM

O=C(O)CCOc1ccccc1
Kd (USP5 ZnF-UBD domain): > 1000 µM

C[C@@H](O)[C@H](NC(=O)[C@H](CCC(N)=O)NC(=O)[C@@H]1CCCN1C(=O)[C@@H]1CCCN1C(=O)[C@@H]1CCCN1C(=O)[C@@H]1CCCN1C(=O)[C@@H](NC(=O)[C@H](Cc1ccccc1)NC(=O)[C@@H]1CCCN1C(=O)[C@H](CO)NC(=O)[C@@H]1CCCN1)[C@@H](C)O)C(=O)N1CCC[C@H]1C(=O)N[C@@H](CO)C(=O)N1CCC[C@H]1C(=O)O
Kd (GRB2 (Homo sapiens, UniProt P62993); binding, NMR titration, item: nSH3 domain; together with: SOS1 proline-rich peptide): 950 µM

NC(=O)c1cccc(-c2ccnc(C(=O)O)c2)c1
Kd (Tumor necrosis factor receptor superfamily member 1A extracellular domain; binding, SPR; irregular sensorgram): 1000 ± 400 µM

Cn1cc2c3c(c[nH]c3c1=O)CN(c1ncc(F)cc1F)c1cc(C(=O)O)c(CS(C)(=O)=O)cc1-2
Kd (elongin C (Spodoptera frugiperda, UniProt A0A2H1WSX9+A0A9R0EEM2); ternary complex formation, degrader, AlphaLISA): > 0.5 µM

O=C(C[C@@H](C(F)F)n1ccc(F)n1)N1CCC(O)(Cn2cnc3c(cnn3-c3ccc(F)cc3)c2=O)CC1
Kd (USP7 (Homo sapiens, UniProt Q93009); isothermal titration calorimetry): 0.054 ± 0.004 µM

O=C(/C=C/c1cccc(S(=O)(=O)Nc2ccccc2)c1)NO
Kd (GATD3; inhibitor, competition pulldown; SW620 and MV4-11 lysate; 1 h): > 30.2 µM

O=c1cc(-c2ccc([N+](=O)[O-])cc2)[nH]c2c(-c3ccc(Cl)cc3)c(Cc3ccccc3)nn12
Kd (Sodium channel protein type 8 subunit alpha, C-terminal domain (SCN8A, Homo sapiens, UniProt Q9UQD0); SPR; PBS with 0.005% Tween-20 and 2% DMSO; 25 °C, immobilised C-terminal domain): 4.07 ± 0.28 µM

O=C(O)c1cc(-c2cccc(O)c2)ccn1
Kd (Tumor necrosis factor receptor superfamily member 1A extracellular domain; SPR OneStep; immobilized target): 721 ± 9 µM

CCCN1CCN(c2ccc(-c3cncc(Cl)c3N3CCC4(CCNC4=O)CC3)cc2)CC1
Kd (MED13 human; SILAC competition; LS174T-L5 lysate): 0.044 µM

Nc1ccccc1NC(=O)c1ccc(CNc2nccc(-c3cccnc3)n2)cc1
Kd (HDAC5; inhibitor, competition pulldown; SW620 and MV4-11 lysate; 1 h): > 30.2 µM

Nc1ncnc2c1ncn2[C@@H]1O[C@H](COP(=O)(O)OP(=O)(O)O)[C@@H](O)[C@H]1O
Kd (CKMT1A (Homo sapiens, UniProt P12532, D359N); microscale thermophoresis; pH 7.0, D321N mutant, no substrate): 30 ± 5 µM

O=C(O)CCc1ccno1
Kd (USP5 ZnF-UBD domain): > 1000 µM

C[C@@H](N[C@@H](CCCN=C(N)N)C(=O)O)C(=O)O
Kd (uncharacterized protein (Pelagibacter ubique, UniProt Q4FLC2); isothermal titration calorimetry; Candidatus Pelagibacter ubique; direct titration): 0.232 ± 0.051 µM

O=C(Nc1nnc(-c2ccncc2)s1)C(F)(F)Cl
Kd (MAPK10 (Homo sapiens, UniProt P53779); pH 7.4): 18.4 µM and 28.8 µM

O=C(O)CCc1nc2ncccn2n1
Kd (USP5 ZnF-UBD domain): > 1000 µM
